Results pooled from the literature.
Lines come from different studies, so protocols differ.
Organism: Plasmodium falciparum

COc1cc2nc(N3CCCCC3)nc(NC3CCN(C)CC3)c2cc1OC
H3K9me3 level (Western blot; 3D7; 5-fold IC50, 12 h; reference: DMSO): decreased

c1ccc(CCCNc2ncnc3cc(OCC4CCN(CCNc5ccnc6ccccc56)CC4)ccc23)cc1
parasites killed (NF54; concentration not given, 6 h, early ring stage, IC50 concentration): ≤ 50%

Cc1ccc(NCC(=O)N2CCC(F)(F)CC2)cc1S(=O)(=O)N1CCOCC1
EC50 (parasite growth; 3D7; blood stage): > 50 µM

Nc1ncnc2c1c(-c1ccc(Oc3ccccc3)cc1)cn2C1CCCC1
AMA1 secretion (non-permeabilizing IFA; 60 µM): no effect

CC[C@H](C)[C@@H]1NC(=O)[C@H](CCCCN)NC(=O)[C@H](CCCCN)NC(=O)[C@H](Cc2ccc(O)cc2)NC(=O)[C@H](CC(C)C)NC(=O)[C@@H]2CCCN2C(=O)[C@H](C)NC(=O)CNC(=O)CNC(=O)[C@H](CO)NC(=O)CNC(=O)CNC(=O)[C@H](CO)NC(=O)[C@H](CCC(=O)O)NC(=O)[C@H](CC(C)C)NC(=O)[C@H](CC(C)C)NC(=O)[C@H](CCCCN)NC(=O)[C@H](CCCCN)NC(=O)[C@H]([C@@H](C)CC)NC(=O)[C@H]([C@@H](C)CC)NC(=O)[C@H](CCCCN)NC(=O)[C@H](CCCCN)NC(=O)[C@H](Cc2ccc(O)cc2)NC(=O)[C@H](CC(C)C)NC(=O)[C@@H]2CCCN2C(=O)[C@H](C)NC(=O)CNC(=O)[C@@H]2CSSC[C@H](NC(=O)[C@H](CC(C)C)NC(=O)[C@H](CCCCN)NC(=O)[C@H](CCCCN)NC(=O)[C@H]([C@@H](C)CC)NC1=O)C(=O)N[C@@H](CCC(=O)O)C(=O)N[C@@H](CC(N)=O)C(=O)NCC(=O)N2
selectivity index (3D7; 5 mg/mL Albumax II; reference: RBC HC10 over P. falciparum IC50): > 3

CCN(CC)c1ccc2nc3c4ccccc4/c(=N/c4ccncc4)cc-3oc2c1
growth inhibition (NF54; 250 ng/mL, 24 h, rings, trophozoites, schizonts): > 99%

Cc1ccc(CNC(=O)[C@@H](NC(=O)[C@H](CCc2ccccc2)NC(=O)[C@H](CCc2ccccc2)N(C)Cc2cnccn2)C(C)C)cc1
selectivity ratio (D10; 72 h; reference: HFF EC50 over P. falciparum EC50): 587

C[OH+][Cu-2]12[O]C(c3cn(-c4ccccc4)nc3-c3ccccc3)=N[N+]1=C(C)c1c(cc(C)oc1=O)[O]2 (centres unmarked)
parasitaemia suppression (3D7; 12.5 µg/mL, 72 h): 100%

CC1=CC(c2ccc[nH]2)=NC1=CNC1CCCCCC1
IC50 (parasite growth, SYBR Green I fluorescence; D6, chloroquine-sensitive): > 0.25 µM

COc1cc(C)c(-c2ccc3c(c2O)[C@@H](C)N[C@H](C)C3)c2ccc(-c3c(C)c(-c4ccc5c(c4O)[C@@H](C)N[C@H](C)C5)c4cccc(OC)c4c3O)c(O)c12
inhibition (gametocyte viability, luciferase reporter; NF54-Pfs16-GFP-Luc, early stage II/III; 5 µM, 48 h): > 70%

C[OH+][Cu-2]12[O]C(c3cn(-c4ccccc4)nc3-c3ccc(C)cc3)=N[N+]1=C(C)c1c(cc(C)oc1=O)[O]2 (centres unmarked)
parasitaemia suppression (3D7; 100 µg/mL, 72 h): 100%

Excerpt of the above:
CCN(CC)c1ccc2nc3c4ccccc4/c(=N/c4ccncc4)cc-3oc2c1
growth inhibition (NF54; 250 ng/mL, 24 h, rings, trophozoites, schizonts): > 99%
